{"data": "Experimental data gathered from unrelated publications", "note": "Every numbered part comes from another study and shows a few of its results, in no order. Substitutions count along the parent as printed.", "UniProt P49761, sequence (whole entry, looked up)": "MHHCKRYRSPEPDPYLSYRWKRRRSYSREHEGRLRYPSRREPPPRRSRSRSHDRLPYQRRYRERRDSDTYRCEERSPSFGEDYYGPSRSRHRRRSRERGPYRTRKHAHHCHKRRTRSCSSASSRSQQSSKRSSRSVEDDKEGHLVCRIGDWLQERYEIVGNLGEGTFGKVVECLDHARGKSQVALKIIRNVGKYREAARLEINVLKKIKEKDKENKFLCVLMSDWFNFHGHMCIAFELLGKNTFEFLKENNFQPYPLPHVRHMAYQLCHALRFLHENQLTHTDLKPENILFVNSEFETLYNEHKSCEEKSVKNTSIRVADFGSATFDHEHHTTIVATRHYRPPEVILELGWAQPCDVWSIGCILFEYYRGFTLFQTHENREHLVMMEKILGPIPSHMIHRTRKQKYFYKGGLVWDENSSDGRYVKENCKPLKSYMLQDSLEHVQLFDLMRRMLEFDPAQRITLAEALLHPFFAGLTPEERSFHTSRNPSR", "UniProt P31751, sequence (whole entry, looked up)": "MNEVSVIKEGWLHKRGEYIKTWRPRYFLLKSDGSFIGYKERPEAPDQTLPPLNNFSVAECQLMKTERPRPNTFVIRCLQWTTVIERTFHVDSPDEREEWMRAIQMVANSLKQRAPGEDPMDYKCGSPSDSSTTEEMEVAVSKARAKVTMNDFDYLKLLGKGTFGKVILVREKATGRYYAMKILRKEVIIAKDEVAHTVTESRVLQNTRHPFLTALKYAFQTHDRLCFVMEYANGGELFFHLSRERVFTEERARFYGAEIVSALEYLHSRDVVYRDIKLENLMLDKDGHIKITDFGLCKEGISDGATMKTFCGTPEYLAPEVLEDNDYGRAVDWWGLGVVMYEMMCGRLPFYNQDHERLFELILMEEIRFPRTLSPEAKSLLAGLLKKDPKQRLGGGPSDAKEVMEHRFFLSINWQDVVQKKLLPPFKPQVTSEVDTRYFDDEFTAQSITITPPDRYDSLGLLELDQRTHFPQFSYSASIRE", "UniProt P32298, sequence (whole entry, looked up)": "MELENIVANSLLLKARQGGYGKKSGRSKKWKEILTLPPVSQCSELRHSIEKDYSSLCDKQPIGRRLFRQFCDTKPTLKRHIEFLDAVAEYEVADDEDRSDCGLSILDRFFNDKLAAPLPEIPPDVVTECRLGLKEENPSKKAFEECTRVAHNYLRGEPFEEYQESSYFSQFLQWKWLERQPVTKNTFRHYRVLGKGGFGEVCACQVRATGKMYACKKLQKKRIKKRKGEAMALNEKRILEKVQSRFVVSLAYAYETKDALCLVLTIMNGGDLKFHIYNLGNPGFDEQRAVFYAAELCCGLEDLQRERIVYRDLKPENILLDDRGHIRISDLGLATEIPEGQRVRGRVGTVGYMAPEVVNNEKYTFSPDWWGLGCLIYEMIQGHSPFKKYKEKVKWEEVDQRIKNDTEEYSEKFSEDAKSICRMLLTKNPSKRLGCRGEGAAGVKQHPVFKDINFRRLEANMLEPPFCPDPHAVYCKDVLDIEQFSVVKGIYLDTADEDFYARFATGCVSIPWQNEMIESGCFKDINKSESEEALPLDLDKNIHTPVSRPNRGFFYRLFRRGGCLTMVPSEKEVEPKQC", "UniProt Q8WXR4, sequence (whole entry, looked up)": "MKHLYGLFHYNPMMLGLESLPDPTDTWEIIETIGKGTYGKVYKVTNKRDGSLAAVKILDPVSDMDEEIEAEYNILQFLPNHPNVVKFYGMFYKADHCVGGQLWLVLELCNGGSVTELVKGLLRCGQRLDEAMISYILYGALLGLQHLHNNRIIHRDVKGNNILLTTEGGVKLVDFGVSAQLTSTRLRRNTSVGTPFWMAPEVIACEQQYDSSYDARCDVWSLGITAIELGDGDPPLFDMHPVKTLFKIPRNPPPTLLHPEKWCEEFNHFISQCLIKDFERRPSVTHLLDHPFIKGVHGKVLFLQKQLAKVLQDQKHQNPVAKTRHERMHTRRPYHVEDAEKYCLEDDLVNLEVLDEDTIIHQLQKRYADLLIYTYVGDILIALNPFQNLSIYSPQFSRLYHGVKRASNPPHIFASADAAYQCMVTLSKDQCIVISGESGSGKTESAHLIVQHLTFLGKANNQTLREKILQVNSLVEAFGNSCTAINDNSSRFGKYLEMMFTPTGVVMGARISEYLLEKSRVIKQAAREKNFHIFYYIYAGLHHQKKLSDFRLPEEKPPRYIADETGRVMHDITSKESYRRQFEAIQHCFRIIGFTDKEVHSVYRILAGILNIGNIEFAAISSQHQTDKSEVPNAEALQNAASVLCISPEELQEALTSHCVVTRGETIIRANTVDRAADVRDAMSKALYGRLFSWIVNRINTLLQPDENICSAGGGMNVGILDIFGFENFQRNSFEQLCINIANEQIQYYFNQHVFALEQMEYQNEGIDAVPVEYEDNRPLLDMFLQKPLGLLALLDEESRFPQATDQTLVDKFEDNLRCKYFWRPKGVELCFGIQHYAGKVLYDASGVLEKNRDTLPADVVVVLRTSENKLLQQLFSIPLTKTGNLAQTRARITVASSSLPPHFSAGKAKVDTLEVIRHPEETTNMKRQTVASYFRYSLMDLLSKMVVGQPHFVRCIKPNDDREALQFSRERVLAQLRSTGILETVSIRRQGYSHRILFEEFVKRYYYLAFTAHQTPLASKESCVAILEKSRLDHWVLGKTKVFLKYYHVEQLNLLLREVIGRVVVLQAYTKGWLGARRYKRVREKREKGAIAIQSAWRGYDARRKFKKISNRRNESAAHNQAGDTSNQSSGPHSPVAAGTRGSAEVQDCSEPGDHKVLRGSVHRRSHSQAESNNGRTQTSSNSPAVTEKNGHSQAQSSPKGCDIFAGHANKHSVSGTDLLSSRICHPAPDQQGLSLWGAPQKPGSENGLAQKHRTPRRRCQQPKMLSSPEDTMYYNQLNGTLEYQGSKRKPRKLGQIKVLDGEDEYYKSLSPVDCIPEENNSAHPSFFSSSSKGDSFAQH", "UniProt Q16539, sequence (whole entry, looked up)": "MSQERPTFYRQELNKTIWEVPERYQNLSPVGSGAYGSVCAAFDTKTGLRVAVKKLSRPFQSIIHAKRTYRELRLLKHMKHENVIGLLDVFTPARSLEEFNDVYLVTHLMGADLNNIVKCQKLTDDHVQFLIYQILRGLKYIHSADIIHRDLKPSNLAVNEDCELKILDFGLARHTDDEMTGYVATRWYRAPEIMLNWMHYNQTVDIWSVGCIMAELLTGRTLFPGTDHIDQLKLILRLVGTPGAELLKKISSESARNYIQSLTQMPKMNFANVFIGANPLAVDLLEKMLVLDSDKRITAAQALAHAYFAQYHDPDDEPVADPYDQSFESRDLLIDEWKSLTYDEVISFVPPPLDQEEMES", "UniProt Q8N568, sequence (whole entry, looked up)": "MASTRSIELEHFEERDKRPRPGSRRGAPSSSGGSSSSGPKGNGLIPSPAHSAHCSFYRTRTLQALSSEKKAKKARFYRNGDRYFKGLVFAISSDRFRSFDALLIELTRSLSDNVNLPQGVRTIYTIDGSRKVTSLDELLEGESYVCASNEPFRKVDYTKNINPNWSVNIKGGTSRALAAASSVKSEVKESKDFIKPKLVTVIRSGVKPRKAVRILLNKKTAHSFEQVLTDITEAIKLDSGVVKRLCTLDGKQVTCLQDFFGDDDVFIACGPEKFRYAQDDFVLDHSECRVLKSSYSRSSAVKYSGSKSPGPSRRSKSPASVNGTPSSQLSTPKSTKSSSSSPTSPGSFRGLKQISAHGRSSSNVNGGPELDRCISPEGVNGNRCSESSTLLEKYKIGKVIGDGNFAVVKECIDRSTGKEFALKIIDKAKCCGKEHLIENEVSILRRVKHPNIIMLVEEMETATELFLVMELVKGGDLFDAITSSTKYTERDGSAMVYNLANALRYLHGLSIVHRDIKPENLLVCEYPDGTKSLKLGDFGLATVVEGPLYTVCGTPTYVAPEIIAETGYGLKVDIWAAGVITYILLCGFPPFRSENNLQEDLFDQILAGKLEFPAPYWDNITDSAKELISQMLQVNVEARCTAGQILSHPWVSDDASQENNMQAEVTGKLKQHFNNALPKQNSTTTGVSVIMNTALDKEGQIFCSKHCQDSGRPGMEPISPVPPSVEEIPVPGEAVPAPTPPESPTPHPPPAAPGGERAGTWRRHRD", "UniProt Q96L34, sequence (whole entry, looked up)": "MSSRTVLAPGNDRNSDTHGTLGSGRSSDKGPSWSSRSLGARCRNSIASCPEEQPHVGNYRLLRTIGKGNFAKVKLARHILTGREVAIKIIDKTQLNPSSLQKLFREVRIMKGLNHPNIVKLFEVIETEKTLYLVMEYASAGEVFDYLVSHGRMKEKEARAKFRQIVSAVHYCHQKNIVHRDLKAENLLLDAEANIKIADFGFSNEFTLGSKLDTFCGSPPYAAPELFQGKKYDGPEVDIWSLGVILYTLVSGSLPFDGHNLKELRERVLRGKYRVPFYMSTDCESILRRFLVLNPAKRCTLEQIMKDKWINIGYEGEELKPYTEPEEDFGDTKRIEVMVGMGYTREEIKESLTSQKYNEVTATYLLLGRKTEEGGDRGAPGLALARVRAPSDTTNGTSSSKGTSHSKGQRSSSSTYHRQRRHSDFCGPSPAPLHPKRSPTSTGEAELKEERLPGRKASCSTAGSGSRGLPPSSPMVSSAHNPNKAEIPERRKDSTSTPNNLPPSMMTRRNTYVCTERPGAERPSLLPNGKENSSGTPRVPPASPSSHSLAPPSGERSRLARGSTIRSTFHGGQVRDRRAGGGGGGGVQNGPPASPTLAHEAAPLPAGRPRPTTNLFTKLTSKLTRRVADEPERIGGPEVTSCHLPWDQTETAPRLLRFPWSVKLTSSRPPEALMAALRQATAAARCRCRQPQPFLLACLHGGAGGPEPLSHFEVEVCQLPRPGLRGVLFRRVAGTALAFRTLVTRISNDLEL"}
{"data": "Set 1", "SMILES": "Fc1ccc(-c2nc3n(c2-c2ccncc2)CCS3)cc1", "read-out": "enzyme activity", "action": "inhibitor", "concentration": "0.5 µM", "baseline": "control"}
{"target": "Serine/threonine-protein kinase MARK2 (MARK2, Homo sapiens, UniProt Q7KZI7)", "remaining activity": "96.4%"}
{"target": "Mitogen-activated protein kinase 14 (MAPK14, Homo sapiens, UniProt Q16539)", "remaining activity": "43.1%"}
{"target": "Dual specificity protein kinase CLK3 (CLK3, Homo sapiens, UniProt P49761)", "remaining activity": "94.4%"}
{"target": "MAP/microtubule affinity-regulating kinase 4 (MARK4, Homo sapiens, UniProt Q96L34)", "remaining activity": "106%"}
{"target": "Mitogen-activated protein kinase 1 (MAPK1, Homo sapiens, UniProt P28482)", "remaining activity": "106%"}
{"target": "Myosin-IIIb (MYO3B, Homo sapiens, UniProt Q8WXR4)", "remaining activity": "102%"}
{"target": "Dual specificity protein kinase CLK4 (CLK4, Homo sapiens, UniProt Q9HAZ1)", "remaining activity": "106%"}
{"target": "RAC-beta serine/threonine-protein kinase (AKT2, Homo sapiens, UniProt P31751)", "remaining activity": "95.9%"}
{"target": "Cyclin-dependent kinase 1, with cyclin A (CDK1, Homo sapiens, UniProt P06493)", "remaining activity": "94.7%"}
{"target": "Hepatocyte growth factor receptor (MET, Homo sapiens, UniProt P08581)", "remaining activity": "92.7%"}
{"target": "Serine/threonine-protein kinase tousled-like 2 (TLK2, Homo sapiens, UniProt Q86UE8)", "remaining activity": "94.7%"}
{"target": "Serine/threonine-protein kinase DCLK2 (DCLK2, Homo sapiens, UniProt Q8N568)", "remaining activity": "97.4%"}
{"target": "Calcium/calmodulin-dependent protein kinase type IV (CAMK4, Homo sapiens, UniProt Q16566)", "remaining activity": "99.8%"}
{"target": "G protein-coupled receptor kinase 4 (GRK4, Homo sapiens, UniProt P32298)", "remaining activity": "95.7%"}
{"data": "Set 2", "Change": "S80D", "target": "ABI1, truncated, D143A, DHFR fusion (Arabidopsis thaliana)", "technique": "DHFR PCA, deep sequencing", "medium": "yeast", "setting": "methotrexate growth selection, single substitutions", "baseline": "wild-type fitted maximum", "direction": "higher = stronger binding", "starting sequence": "PYL1, truncated, DHFR fusion (Arabidopsis thaliana); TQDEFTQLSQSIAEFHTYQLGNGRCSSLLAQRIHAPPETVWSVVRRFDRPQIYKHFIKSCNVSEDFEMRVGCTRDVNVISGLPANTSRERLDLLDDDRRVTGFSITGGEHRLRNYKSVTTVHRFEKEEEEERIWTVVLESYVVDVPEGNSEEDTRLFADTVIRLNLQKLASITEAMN"}
{"setting": "together with: (+)-ABA 58 µM", "relative binding score [%]": 8.46}
{"setting": "together with: (+)-ABA 200 µM", "relative binding score [%]": 44.6}
{"setting": "together with: (+)-ABA 710 µM", "relative binding score [%]": 56.8}
{"setting": "together with: (+)-ABA 0 µM", "relative binding score [%]": 9.83}
{"setting": "together with: (+)-ABA 0.032 µM", "relative binding score [%]": 6.01}
{"setting": "together with: (+)-ABA 4.8 µM", "relative binding score [%]": -15.4}
{"data": "Set 3", "target": "POU domain, class 5, transcription factor 1, POU domain (Pou5f1, Mus musculus, UniProt P20263, residues 131-289)", "technique": "Spec-seq", "form": "double-stranded DNA, one strand shown", "medium": "in vitro", "concentration": "not given", "setting": "whole probe, mean of replicates", "baseline": "not given", "direction": "lower = stronger binding", "constant ends, left off below": "GAGTCGTCTCGTCAGCAC … CCGTAGAGCACTCAGGTC", "UniProt P20263, sequence (131-289, looked up)": "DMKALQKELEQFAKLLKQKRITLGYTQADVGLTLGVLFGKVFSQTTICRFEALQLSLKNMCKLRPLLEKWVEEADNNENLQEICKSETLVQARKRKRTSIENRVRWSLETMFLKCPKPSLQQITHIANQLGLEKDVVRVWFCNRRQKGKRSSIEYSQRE"}
{"Strand": "ATGCCCCC", "relative binding energy [ln ratio]": 0.783}
{"Strand": "ATCGTGAT", "relative binding energy [ln ratio]": 0.543}
{"Strand": "AAATTAAT", "relative binding energy [ln ratio]": -0.811}
{"Strand": "ATGCATAG", "relative binding energy [ln ratio]": -0.985}
{"Strand": "TTCATAAT", "relative binding energy [ln ratio]": 0.283}
{"Strand": "CGGTTAAT", "relative binding energy [ln ratio]": 0.858}
{"Strand": "ATAAACAT", "relative binding energy [ln ratio]": -0.242}
{"Strand": "ATGCGTCG", "relative binding energy [ln ratio]": 0.188}
{"data": "Set 4", "SMILES": "CCc1ccccc1C(=O)Nc1n[nH]c2c(C)c(F)c(C3C(C#N)=C(C)N(C)C(C)=C3C#N)cc12", "read-out": "cell-free assay", "technique": "competition with immobilised ligand", "concentration": "1 µM"}
{"target": "Epidermal growth factor receptor (EGFR, Homo sapiens, UniProt P00533, del752-759)", "remaining binding": "52%"}
{"target": "Ribosomal protein S6 kinase alpha-4, C-terminal kinase domain (RPS6KA4, Homo sapiens, UniProt O75676)", "remaining binding": "100%"}
{"target": "Serine/threonine-protein kinase 38 (STK38, Homo sapiens, UniProt Q15208)", "remaining binding": "100%"}
{"target": "Calcium/calmodulin-dependent protein kinase type II subunit alpha (CAMK2A, Homo sapiens, UniProt Q9UQM7)", "remaining binding": "47%"}
{"note": "For quick reference, copied from above (set 3):"}
{"Strand": "ATCGTGAT", "relative binding energy [ln ratio]": 0.543}
{"Strand": "ATGCCCCC", "relative binding energy [ln ratio]": 0.783}
{"Strand": "ATAAACAT", "relative binding energy [ln ratio]": -0.242}
